Measurements gathered from unrelated publications.
Every numbered part comes from another study and shows a few of its results, in no order. Substitutions count along the parent as printed.

Block 1 — target: UBE2D4 UBC core domain (UniProt Q9Y2X8); technique: yeast two-hybrid; medium: yeast; setting: mostly zero background; reference: not given; reading: higher = stronger interaction
B1: RFWD3 RING domain (UniProt Q6PCD5); chain ASMDEEEGDTCTICLEQWTNAGDHRLSALRCGHLFGYRCISTWLKGQVRKCPQCNKKARHSDIVV
Residues (chain): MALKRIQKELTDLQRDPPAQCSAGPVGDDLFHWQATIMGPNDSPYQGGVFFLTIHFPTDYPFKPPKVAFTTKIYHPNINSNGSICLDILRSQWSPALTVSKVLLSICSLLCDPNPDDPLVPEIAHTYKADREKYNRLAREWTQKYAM
Sequence	lacZ reporter activity
KETIKKTTKPCPRCHVPVEKNGGCMHMKCPQPQCRLEWCWNCGCEWNRVCMG (PRKN RING domain (UniProt O60260))	0
B1 (RFWD3 RING domain)	10300
NLSELTPYILCSICKGYLIDATTITECLHTFCKSCIVRHFYYSNRCPKCNIVVHQTQPLY (PCGF6 RING domain (UniProt Q9BYE7))	0

Block 2 — target: ATF5, bZIP domain (human); technique: DHFR protein complementation; medium: yeast; reference: wild-type JUN-FOS pair; reading: higher = stronger binding
Setting: single substitutions, most at no-binding floor
Starting sequence: JUN, bZIP domain (human); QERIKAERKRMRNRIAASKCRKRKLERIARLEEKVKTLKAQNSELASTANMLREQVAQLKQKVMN; partner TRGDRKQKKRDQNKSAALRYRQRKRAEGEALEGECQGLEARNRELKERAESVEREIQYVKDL
Variant	binding fitness [natural log]
N42E	-1.46
L45N	-1.54
Q55K	-1.37
E44F	-1.46
N42D	-1.61
E44A	-1.49
T48F	-1.56
I28V	-1.51

Block 3 — technique: RNA Bind-n-Seq; form: RNA; medium: in vitro; concentration: 90 pmol; setting: 4-mer, random 30-nt RNA, single round; added: 3 µM DMDA-PatA, 2 mM ADP, 2 mM phosphate; reference: input library; reading: higher = stronger binding
Target: ATP-dependent RNA helicase DDX3X, helicase core (DDX3X, Homo sapiens, UniProt O00571, residues 132-607)
Sequence of UniProt O00571 (132-607, looked up): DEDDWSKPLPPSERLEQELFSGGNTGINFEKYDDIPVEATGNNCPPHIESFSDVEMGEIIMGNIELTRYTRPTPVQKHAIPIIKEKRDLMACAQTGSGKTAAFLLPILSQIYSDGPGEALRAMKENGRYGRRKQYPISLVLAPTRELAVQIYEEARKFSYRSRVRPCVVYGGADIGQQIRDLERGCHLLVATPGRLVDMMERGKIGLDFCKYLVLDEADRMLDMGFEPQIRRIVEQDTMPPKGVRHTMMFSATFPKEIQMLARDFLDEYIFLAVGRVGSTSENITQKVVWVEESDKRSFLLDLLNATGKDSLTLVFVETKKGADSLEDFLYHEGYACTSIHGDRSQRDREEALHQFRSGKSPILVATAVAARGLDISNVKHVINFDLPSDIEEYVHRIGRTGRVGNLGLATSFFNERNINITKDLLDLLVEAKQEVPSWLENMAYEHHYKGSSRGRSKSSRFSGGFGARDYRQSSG
Oligonucleotide	4-mer enrichment
AAUC	0.929 fold
AGGC	1.08 fold
GCCA	0.92 fold
AAAC	0.951 fold
AACG	0.951 fold
GAGU	1.44 fold
UAGA	0.995 fold
CAUG	0.942 fold

Further values, each from its own experiment — starting sequence: viral docking peptide; KGVKRKLFAEDSS
Variant	target	test	test system	setting	scale	quantity	result
KGVKRKLFAADSS [E10A]	CCNE2, cyclin fold, Cln2 fusion (human)	yeast growth competition, sequencing	yeast	strong parent motif	reference: not given, higher = stronger binding	normalised enrichment score	5.66

Some of these lines once more (block 3):
Oligonucleotide	4-mer enrichment
UAGA	0.995 fold
